Experimental data collected from several papers.
Compare with care: the assays were run in different laboratories. ± marks the error that the study gave.
Chain of UniProt O96017 (whole entry, looked up): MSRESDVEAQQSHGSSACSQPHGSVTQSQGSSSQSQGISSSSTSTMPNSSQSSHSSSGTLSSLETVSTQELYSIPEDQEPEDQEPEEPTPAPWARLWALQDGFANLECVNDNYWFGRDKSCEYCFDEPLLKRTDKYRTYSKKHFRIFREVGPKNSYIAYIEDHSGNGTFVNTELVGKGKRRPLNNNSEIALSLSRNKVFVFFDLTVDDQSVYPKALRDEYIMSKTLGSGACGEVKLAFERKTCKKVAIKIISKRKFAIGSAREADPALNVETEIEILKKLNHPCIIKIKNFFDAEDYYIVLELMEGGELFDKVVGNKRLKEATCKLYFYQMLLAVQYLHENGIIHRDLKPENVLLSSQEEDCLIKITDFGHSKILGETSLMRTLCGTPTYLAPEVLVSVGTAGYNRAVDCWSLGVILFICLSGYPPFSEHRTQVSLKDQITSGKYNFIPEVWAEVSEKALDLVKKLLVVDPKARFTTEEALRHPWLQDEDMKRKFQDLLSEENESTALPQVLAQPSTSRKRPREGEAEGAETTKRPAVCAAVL
Chain of UniProt O43293 (whole entry, looked up): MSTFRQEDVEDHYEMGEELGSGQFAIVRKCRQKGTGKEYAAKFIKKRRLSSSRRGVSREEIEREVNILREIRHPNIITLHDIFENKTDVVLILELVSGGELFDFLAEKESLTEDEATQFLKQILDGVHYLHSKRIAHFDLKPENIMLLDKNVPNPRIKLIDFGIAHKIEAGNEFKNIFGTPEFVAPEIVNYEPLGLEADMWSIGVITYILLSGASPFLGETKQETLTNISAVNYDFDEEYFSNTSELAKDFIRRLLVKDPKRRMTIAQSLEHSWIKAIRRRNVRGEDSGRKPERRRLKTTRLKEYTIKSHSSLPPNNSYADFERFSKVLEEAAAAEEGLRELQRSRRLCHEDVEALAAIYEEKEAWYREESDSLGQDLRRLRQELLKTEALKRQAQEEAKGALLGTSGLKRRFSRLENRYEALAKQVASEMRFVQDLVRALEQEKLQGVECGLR
Chain of UniProt Q9UKP6 (whole entry, unmodified, looked up): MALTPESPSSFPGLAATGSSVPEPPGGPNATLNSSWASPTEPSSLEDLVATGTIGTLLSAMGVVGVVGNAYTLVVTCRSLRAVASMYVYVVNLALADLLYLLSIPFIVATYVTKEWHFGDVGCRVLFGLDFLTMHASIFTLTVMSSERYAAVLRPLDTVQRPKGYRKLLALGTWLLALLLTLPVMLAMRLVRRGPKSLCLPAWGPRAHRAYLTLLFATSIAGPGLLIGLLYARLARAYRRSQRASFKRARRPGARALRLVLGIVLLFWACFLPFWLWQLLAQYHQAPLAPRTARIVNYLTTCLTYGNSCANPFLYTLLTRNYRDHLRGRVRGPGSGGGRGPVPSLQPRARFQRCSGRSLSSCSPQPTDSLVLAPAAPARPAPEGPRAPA
Chain of UniProt O43603 (whole entry, looked up): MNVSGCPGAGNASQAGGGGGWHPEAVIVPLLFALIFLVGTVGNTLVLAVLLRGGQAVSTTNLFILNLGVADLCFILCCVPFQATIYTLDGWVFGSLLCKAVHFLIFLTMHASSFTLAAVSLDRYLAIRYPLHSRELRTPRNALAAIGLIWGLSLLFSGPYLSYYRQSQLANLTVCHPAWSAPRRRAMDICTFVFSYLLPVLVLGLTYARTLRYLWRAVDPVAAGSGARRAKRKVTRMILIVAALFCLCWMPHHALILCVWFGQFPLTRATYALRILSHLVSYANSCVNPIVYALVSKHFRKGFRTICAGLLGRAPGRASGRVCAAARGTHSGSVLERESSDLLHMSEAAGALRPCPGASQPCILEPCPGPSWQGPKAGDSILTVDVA

COc1ccccc1-c1n[nH]c2nc(NC3CCN(C(=O)Cc4ccc(F)cc4F)CC3)ncc12
relative abundance (bead binding, competition bead pull-down, measured: LINJ.36.2070; Leishmania donovani axenic amastigote extract; 10 µM; reference: vehicle): 1.12

CC[C@H](C)[C@H](NC(=O)[C@H](CCCCN)NC(=O)CNC(=O)[C@@H](NC(=O)[C@H](Cc1c[nH]cn1)NC(=O)[C@H](Cc1c[nH]cn1)NC(=O)[C@@H](NC(=O)CNC(=O)[C@H](Cc1c[nH]cn1)NC(=O)[C@H](Cc1ccccc1)NC(=O)[C@H](CC(C)C)NC(=O)[C@H](CC(C)C)NC(=O)[C@H](CCCNC(=N)N)NC(=O)[C@H](Cc1ccccc1)NC(=O)[C@@H](N)Cc1ccccc1)C(C)C)C(C)C)C(=O)N[C@@H](CCCCN)C(=O)N1CCC[C@H]1C(=O)N[C@@H](CCCNC(=N)N)C(=O)N[C@@H](C)C(N)=O
chronic toxic concentration (zebrafish embryos 28 hpf, E3 medium; 24 h): 25 µM

O=C1NC(=O)c2c1c1cc(F)c[n+]3c1c1c2c2cc(O)ccc2[n]1[Ru-4]312([N]=C=S)[S+]3CC[S+]1CC[S+]2CC3 (stereo not drawn)
remaining activity (Death-associated protein kinase 3 (DAPK3, Homo sapiens, UniProt O43293); enzyme activity; 100 nM, human enzyme, together with: 10 µM ATP; reference: untreated): 1%

Cc1ccccc1-c1ccc(-c2nc(-c3ccc(CN(C)CCCC(=O)O)c([18F])c3)no2)cc1C(F)(F)F
tracer uptake (rat, muscle; 5 min): 0.16 %ID/g

CCCCCCCCCCCCCCCC(=O)N[C@@H](CCC(=O)NCCOCCOCCC(=O)NCCOCCOCCC(=O)NCCCC[C@H](NC(=O)[C@H](CC(=O)O)NC(=O)[C@H](CC(C)C)NC(=O)[C@H](Cc1ccc(O)cc1)NC(=O)[C@H](CCCCN)NC(=O)[C@H](CO)NC(=O)[C@H](Cc1ccc(O)cc1)NC(=O)[C@H](CC(=O)O)NC(=O)[C@H](CO)NC(=O)[C@@H](NC(=O)[C@H](Cc1ccccc1)NC(=O)[C@@H](NC(=O)CNC(=O)[C@H](CCC(N)=O)NC(=O)[C@@H](CO)NC(=O)[C@@H](N)Cc1c[nH]cn1)[C@@H](C)O)[C@@H](C)O)C(=O)N[C@@H](CCCNC(=N)N)C(=O)N[C@@H](CCCNC(=N)N)C(=O)N[C@@H](C)C(=O)N[C@@H](CCC(N)=O)C(=O)N[C@@H](CC(=O)O)C(=O)N[C@@H](Cc1ccccc1)C(=O)N[C@H](C(=O)N[C@@H](CCC(N)=O)C(=O)N[C@@H](Cc1c[nH]c2ccccc12)C(=O)N[C@@H](CC(C)C)C(=O)N[C@@H](CC(C)C)C(=O)N[C@@H](CC(N)=O)C(=O)N[C@H](C(=O)NCC(=O)NCC(=O)N1CCC[C@H]1C(=O)N[C@@H](CO)C(=O)N[C@@H](CO)C(=O)NCC(=O)N[C@@H](C)C(=O)N1CCC[C@H]1C(=O)N1CCC[C@H]1C(=O)N1CCC[C@H]1C(=O)N[C@@H](CO)C(N)=O)[C@@H](C)O)C(C)C)C(=O)O
Cmax (rhesus monkey, plasma; subcutaneous, 20 µg/kg, multiple doses): 14.8 ng/mL

CC1(C)C(=O)N(c2ccc(C#N)c(C(F)(F)F)c2)C(=S)N1c1ccc(C(N)=O)c(F)c1
AUC (male human, plasma; oral, 40 mg, single dose, fasted): 71300 ng·h/mL

CSCC[C@H](NC(=O)CNC(=O)[C@H](CCCCN)NC(=O)[C@H](CC(C)C)NC(=O)[C@@H]1CCCN1C(=O)[C@H](CO)NC(=O)[C@H](Cc1c[nH]cn1)NC(=O)[C@H](Cc1c[nH]c2ccccc12)NC(=O)[C@H](CCCNC(=N)N)NC(=O)[C@H](CC(C)C)NC(=O)[C@H](CCCNC(=N)N)NC(=O)[C@H](Cc1c[nH]c2ccccc12)NC(=O)[C@H](CS)NC(=O)CCCCCNC(=O)CN1CCN(CC(=O)O)CCN(CC(=O)O)CCN(CC(=O)O)CC1)C(=O)O [copper-64 labelled]
tissue uptake (ex vivo biodistribution; C57BL/6J mice bearing B16-F10 tumours, lung; intravenous, 1.85 MBq, 30 h): 4.92 %ID/g

CC(=O)NCCCC[C@@H]1NC(=O)[C@H](Cc2c[nH]c3c(C)cccc23)NC(=O)[C@H]([C@@H](C)O)NC(=O)[C@H](CC(N)=O)NC(=O)[C@@H](NC(C)=O)C(C)(C)SSC(C)(C)[C@@H](C(=O)N[C@@H](Cc2ccc(OCCN)cc2)C(=O)N[C@@H](Cc2ccc3ccccc3c2)C(=O)NC2(C(=O)N[C@@H](CCC(=O)O)C(=O)N[C@@H](CC(N)=O)C(=O)N[C@@H](Cc3cccnc3)C(=O)N(C)CC(N)=O)CCOCC2)NC1=O
unbound fraction (equilibrium dialysis; albumin plus glycoprotein; 0.01 µM, albumin 4%, glycoprotein 0.07%): 73.2 ± 1.7%

CS(C)(=O)=Nc1ccc(-c2ccc(-c3nc4cc(O[C@@H]5CO[C@H]6[C@@H]5OC[C@H]6O)[nH]c4cc3F)cc2)cc1
inhibition (Galanin receptor type 2 (GALR2, Homo sapiens, UniProt O43603); calcium signal, antagonist; 10 µM): 69%

CCN(CC)C(=O)[C@@H]1C=C2c3cccc4c3c(cn4C(=O)c3ccco3)C[C@H]2N(C)C1
ED50 (head-twitch response, magnetometer detection; mouse C57BL/6J male; intraperitoneal, 30 min session): 0.23 mg/kg

CC[C@H](C)[C@H](NC(=O)[C@H](C)NC(=O)[C@H](CCCCN)NC(=O)[C@H](CC(C)C)NC(=O)[C@@H](N)Cc1ccccc1)C(=O)N[C@@H](CCCCN)C(=O)N[C@@H](CCCCN)C(=O)N[C@@H](Cc1ccccc1)C(=O)NCC(=O)N[C@@H](CCCCN)C(=O)N[C@@H](CCC(=O)O)C(=O)N[C@@H](Cc1ccccc1)C(=O)N[C@@H](CCCCN)C(=O)N[C@@H](CCCCN)C(=O)N[C@H](C(=O)NCC(=O)N[C@@H](C)C(=O)N[C@@H](CCCCN)C(=O)N[C@@H](CC(C)C)C(=O)N[C@@H](CCCCN)C(=O)O)[C@@H](C)CC
hemolysis (human red blood cells; 0.5 mg/L, 1 h, mean of replicates): 0.204%

N#[11C]c1ccc(-c2csc(NN=C3CCCC3)n2)cc1
radioactivity uptake (C57BL/6 mice, male, heart; intravenous, 3 MBq, 15 min): 4.36 ± 0.28 %ID/g

CC[C@H](C)[C@H](NC(=O)[C@H](CCCCN)NC(=O)CNC(=O)[C@H](CC(C)C)NC(=O)[C@H](Cc1ccccc1)NC(=O)[C@H](CCCCN)NC(=O)[C@H](CO)NC(=O)[C@H](Cc1ccccc1)NC(=O)[C@H](Cc1c[nH]c2ccccc12)NC(=O)[C@H](CCC(N)=O)NC(=O)[C@@H](NC(=O)[C@H](Cc1ccccc1)NC(=O)CCCCCNC(=O)CN1CCN(CC(=O)O)CCN(CC(=O)O)CCN(CC(=O)O)CC1)C(C)C)C(=O)N[C@@H](CCC(=O)O)C(=O)N1CCC[C@H]1C(=O)N[C@@H](CC(=O)O)C(=O)N[C@H](C(=O)N[C@@H](CO)C(=O)N[C@@H](CCC(N)=O)C(=O)N[C@H](C(=O)N[C@@H](CCC(N)=O)C(=O)N[C@@H](CC(=O)O)C(=O)N1CCC[C@H]1C(=O)N[C@@H](CC(N)=O)C(=O)N[C@@H](CC(=O)O)C(=O)N[C@@H](CCC(N)=O)C(=O)N[C@@H](Cc1ccc(O)cc1)C(=O)N[C@@H](CCC(=O)O)C(=O)N1CCC[C@H]1C(=O)N[C@@H](Cc1ccccc1)C(=O)O)C(C)C)C(C)C [copper-64 labelled]
tissue uptake (C57BL/6 mice, muscle; together with: LPS 3 mg/kg intratracheal): 0.36 ± 0.04 %ID/g

CC(C)[C@H](NC(=O)[C@@H]1CSSC(C)(C)[C@H](NC(=O)[C@@H](N)CC(=O)O)C(=O)N[C@@H](Cc2ccccc2)C(=O)N[C@@H](Cc2c[nH]c3ccccc23)C(=O)N[C@@H](CCCCN)C(=O)N[C@@H](Cc2ccc(O)cc2)C(=O)N1)C(=O)O
EC50 (Urotensin-2 receptor (UTS2R, Homo sapiens, UniProt Q9UKP6, I107A); IP1 accumulation, agonist, HTRF; HEK293T; 1 h, 37 °C, I107A mutant, 2.60): 6.31 nM

COc1cccc2c1C(=O)c1c(O)c3c(c(O)c1C2=O)CC(O)(C(=O)CO)CC3OC1CC(NC(=O)OC2C=CCCC(C)(C(=O)NCC(=O)O)CC2)C(O)C(C)O1 (stereo not drawn)
AUC(0.5-24 h) (male Sprague Dawley rat, plasma; intravenous, 21.5 mg/kg/day doxorubicin equivalents, average over days): 1520 ng·h/mL

CC(C)[C@H]1NC(=O)C[C@H]2/C=C/CCSSC[C@@H](NC1=O)C(=O)N[C@H](Cc1cccc3ccccc13)C(=O)NCC(=O)O2
inhibition (Serine/threonine-protein kinase Chk2 (CHEK2, Homo sapiens, UniProt O96017); enzyme activity, inhibitor; 10 µM): -4.7%

O=C1NC2(CC2)COc2ncc(F)cc2[C@H]2COCCN2c2ccn3ncc1c3n2
organ-to-brain weight ratio (Sprague-Dawley rat, male, spleen; oral, 20 mg/kg/day, 4 weeks, end of treatment): 79.7 ± 17.4%

COc1cnc2cccc(N3CCc4c(cc(Cn5ccnc5)cc4-c4cn(C)nc4C(F)(F)F)C3=O)c2c1
body weight (CD-1 mice; intraperitoneal, 150 mg/kg once daily, day 5): 30.7 ± 1.8 g

A few entries again:
CS(C)(=O)=Nc1ccc(-c2ccc(-c3nc4cc(O[C@@H]5CO[C@H]6[C@@H]5OC[C@H]6O)[nH]c4cc3F)cc2)cc1
inhibition (Galanin receptor type 2 (GALR2, Homo sapiens, UniProt O43603); calcium signal, antagonist; 10 µM): 69%

CCN(CC)C(=O)[C@@H]1C=C2c3cccc4c3c(cn4C(=O)c3ccco3)C[C@H]2N(C)C1
ED50 (head-twitch response, magnetometer detection; mouse C57BL/6J male; intraperitoneal, 30 min session): 0.23 mg/kg
